# Experimental data of several laboratories.
# Numbers after ± are the reported error.
Structure (SMILES),assay,system,setting,AUC
O=C(N[C@@H](Cn1ccnc1)c1ccc(Cl)cc1Cl)c1ccc(-c2nnc(-c3ccccc3)o2)cc1,,"mouse, plasma","oral, 25 mg/kg, HPCD formulation",55 ng·h/mL
CN(C)CCCC1(c2ccc(F)cc2)OCc2cc(C#N)ccc21 (racemic),,"CD-1 mouse, pregnant female, gestation day 14, maternal serum","intraperitoneal, 20 mg/kg",1390 ± 48 ng·h/mL
CC(C)[C@H](N)C(=O)OCC1(CO)C/C1=C/n1cnc2c(=O)[nH]c(N)nc21.Cl (mixture of isomers),item: prodrug,"Swiss-Webster mouse (male), plasma","intravenous, 24.6 mg/kg, two-compartment model",1620 ng·h/mL
OC[C@H]1O[C@@H](c2ccc(F)c(Cc3cc4ccccc4s3)c2)[C@H](O)[C@@H](O)[C@@H]1O,,"male ICR mouse, liver","oral, 3 mg/kg, 24 h",19300 ng·h/mL
Cc1cc(Nc2cc3ncccc3c(N[C@@H]3C[C@H]4CC[C@@H](C3)N4CCC#N)n2)n[nH]1,,"male BALB/c mouse, colon","oral, 10 mg/kg, 0 to 24 h",22.2 ± 21.9 µM·h
CC(=O)Nc1cccc(-n2c(=O)n(C3CC3)c(=O)c3c(Nc4ccc(I)cc4F)n(C)c(=O)c(C)c32)c1,,"athymic nude mouse, tumour-bearing, plasma","oral, 5 mg/kg, single dose, added: sapanisertib 2 mg/kg",644 ng·h/mL
N#C[C@@H]1CCCN1C(=O)CNC12CC3CC(CC(O)(C3)C1)C2,,"male ICR mouse, liver","oral, 3 mg/kg, 24 h",22800 ng·h/mL
CC[C@H](C)[C@@H]1NC(=O)[C@H](Cc2ccc(O)cc2)NC(=O)[C@@H](N)CSSC[C@@H](C(=O)N2CCC[C@H]2C(=O)N[C@@H](CC(C)C)C(=O)NCC(N)=O)NC(=O)[C@H](CC(N)=O)NC(=O)[C@H](CCC(N)=O)NC1=O,"microdialysis, RIA","male knockout mouse, hippocampus ECF","i.p., 12 µg",98.7 ± 38.8 pg·30 min/sample
COc1ccc2c(c1)c(CC(=O)O)c(C)n2C(=O)c1ccc(Cl)cc1,,"male ICR mouse, liver","oral, 3 mg/kg, 24 h",35800 ng·h/mL
COc1cccc2c1C(=O)c1c(O)c3c(c(O)c1C2=O)C[C@@](O)(C(=O)CO)C[C@@H]3O[C@H]1C[C@H](N)[C@H](O)[C@H](C)O1,,"mouse, E0771 tumour-bearing, kidney","intravenous, 92 µmol/kg",6020 µM·h
CNCCCC1(c2ccc(F)cc2)OCc2cc(C#N)ccc21 (stereo not drawn),,"CD-1 mouse, pregnant female, gestation day 18, maternal serum","intraperitoneal, 20 mg/kg citalopram, single dose",611 ± 66.4 ng·h/mL
OC[C@H]1O[C@@H](c2ccc(Cl)c(Cc3ccc(O[C@H]4CCOC4)cc3)c2)[C@H](O)[C@@H](O)[C@@H]1O,,"male ICR mouse, plasma","oral, 3 mg/kg, 24 h",626 ng·h/mL

# For quick reference, copied from above:
Structure (SMILES),assay,system,setting,AUC
O=C(N[C@@H](Cn1ccnc1)c1ccc(Cl)cc1Cl)c1ccc(-c2nnc(-c3ccccc3)o2)cc1,,"mouse, plasma","oral, 25 mg/kg, HPCD formulation",55 ng·h/mL
CC(C)[C@H](N)C(=O)OCC1(CO)C/C1=C/n1cnc2c(=O)[nH]c(N)nc21.Cl (mixture of isomers),item: prodrug,"Swiss-Webster mouse (male), plasma","intravenous, 24.6 mg/kg, two-compartment model",1620 ng·h/mL
